Assay results gathered from unrelated publications.
Numbered parts are unrelated; each lists some results of a single study.
Chain of UniProt Q8IVW4 (whole entry, looked up): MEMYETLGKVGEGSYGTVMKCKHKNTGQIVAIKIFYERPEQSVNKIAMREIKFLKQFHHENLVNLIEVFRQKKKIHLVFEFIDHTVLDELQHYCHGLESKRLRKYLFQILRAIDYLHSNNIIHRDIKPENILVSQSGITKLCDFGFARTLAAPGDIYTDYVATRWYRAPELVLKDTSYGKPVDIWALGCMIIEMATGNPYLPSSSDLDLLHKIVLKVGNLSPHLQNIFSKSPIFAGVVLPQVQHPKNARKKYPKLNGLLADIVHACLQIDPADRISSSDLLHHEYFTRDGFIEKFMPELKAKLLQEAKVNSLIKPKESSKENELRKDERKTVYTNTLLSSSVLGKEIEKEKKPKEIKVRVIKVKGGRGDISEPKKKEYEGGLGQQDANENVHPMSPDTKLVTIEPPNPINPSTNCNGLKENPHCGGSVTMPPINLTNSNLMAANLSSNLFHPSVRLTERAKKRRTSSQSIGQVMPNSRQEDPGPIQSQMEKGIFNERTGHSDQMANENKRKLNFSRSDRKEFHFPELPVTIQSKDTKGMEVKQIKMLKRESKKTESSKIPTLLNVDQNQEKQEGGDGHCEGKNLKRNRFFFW
Chain of UniProt P42685 (whole entry, looked up): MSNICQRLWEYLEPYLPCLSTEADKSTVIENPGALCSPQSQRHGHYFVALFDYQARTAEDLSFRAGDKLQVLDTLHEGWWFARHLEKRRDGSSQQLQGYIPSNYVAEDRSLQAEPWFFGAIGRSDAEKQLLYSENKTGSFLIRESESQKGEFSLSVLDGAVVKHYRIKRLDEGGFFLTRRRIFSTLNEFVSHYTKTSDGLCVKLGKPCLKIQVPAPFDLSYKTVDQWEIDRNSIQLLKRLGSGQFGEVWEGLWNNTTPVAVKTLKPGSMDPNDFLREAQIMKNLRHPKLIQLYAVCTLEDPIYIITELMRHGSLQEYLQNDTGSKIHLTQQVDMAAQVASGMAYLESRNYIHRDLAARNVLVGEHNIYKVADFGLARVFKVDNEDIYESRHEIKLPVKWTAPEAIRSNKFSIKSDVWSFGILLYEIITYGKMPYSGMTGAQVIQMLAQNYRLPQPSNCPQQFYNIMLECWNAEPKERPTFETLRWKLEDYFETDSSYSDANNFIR
Chain of UniProt Q9UEE5 (whole entry, looked up): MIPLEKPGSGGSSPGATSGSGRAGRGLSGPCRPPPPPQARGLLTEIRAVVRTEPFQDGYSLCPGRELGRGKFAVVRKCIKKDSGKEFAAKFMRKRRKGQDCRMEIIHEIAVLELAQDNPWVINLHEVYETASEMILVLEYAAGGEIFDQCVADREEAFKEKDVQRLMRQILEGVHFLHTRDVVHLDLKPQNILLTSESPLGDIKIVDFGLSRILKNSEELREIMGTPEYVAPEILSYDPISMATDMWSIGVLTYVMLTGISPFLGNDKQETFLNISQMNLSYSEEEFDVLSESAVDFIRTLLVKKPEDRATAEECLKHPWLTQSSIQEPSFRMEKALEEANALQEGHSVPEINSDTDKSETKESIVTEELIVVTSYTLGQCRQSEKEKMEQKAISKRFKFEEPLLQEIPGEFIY
Chain of UniProt Q6DT37 (whole entry, looked up): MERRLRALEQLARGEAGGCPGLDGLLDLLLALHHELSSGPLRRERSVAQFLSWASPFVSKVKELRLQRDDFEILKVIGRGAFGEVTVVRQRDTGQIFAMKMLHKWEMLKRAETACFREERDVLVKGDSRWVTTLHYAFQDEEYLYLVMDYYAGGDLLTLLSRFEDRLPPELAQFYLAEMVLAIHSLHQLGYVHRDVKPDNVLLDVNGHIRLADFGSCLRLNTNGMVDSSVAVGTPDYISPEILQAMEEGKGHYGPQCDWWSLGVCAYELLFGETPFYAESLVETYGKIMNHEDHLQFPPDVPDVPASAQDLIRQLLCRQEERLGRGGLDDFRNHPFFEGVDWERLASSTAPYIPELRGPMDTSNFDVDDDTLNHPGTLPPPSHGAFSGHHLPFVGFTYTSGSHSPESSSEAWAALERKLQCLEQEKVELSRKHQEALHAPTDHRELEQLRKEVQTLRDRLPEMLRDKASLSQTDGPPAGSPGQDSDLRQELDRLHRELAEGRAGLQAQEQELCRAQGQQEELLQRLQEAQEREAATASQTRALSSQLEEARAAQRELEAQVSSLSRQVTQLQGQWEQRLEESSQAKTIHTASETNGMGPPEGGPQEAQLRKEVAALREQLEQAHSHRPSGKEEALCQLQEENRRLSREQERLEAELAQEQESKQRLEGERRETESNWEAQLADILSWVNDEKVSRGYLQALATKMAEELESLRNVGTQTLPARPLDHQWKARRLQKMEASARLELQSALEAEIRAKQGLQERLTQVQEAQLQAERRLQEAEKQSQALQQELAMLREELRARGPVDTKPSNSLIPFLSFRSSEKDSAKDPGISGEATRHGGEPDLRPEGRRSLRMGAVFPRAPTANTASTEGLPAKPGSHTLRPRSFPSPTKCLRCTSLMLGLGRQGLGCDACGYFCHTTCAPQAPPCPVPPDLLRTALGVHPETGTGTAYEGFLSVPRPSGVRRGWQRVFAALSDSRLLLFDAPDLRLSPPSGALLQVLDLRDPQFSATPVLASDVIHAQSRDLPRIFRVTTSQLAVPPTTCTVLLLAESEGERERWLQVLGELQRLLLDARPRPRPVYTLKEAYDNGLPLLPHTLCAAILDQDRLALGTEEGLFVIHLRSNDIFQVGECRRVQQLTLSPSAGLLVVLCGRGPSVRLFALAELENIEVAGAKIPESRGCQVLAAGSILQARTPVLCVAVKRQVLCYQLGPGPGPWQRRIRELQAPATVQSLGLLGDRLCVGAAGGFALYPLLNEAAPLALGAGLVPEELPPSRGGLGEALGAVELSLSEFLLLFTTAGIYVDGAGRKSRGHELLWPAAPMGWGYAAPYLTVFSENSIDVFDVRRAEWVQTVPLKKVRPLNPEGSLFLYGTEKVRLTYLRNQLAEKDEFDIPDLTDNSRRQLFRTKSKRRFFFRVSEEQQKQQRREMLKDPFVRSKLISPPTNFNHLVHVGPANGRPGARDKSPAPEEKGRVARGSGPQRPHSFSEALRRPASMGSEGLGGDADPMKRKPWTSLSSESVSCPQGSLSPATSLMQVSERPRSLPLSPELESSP
Chain of UniProt Q9NY57 (whole entry, looked up): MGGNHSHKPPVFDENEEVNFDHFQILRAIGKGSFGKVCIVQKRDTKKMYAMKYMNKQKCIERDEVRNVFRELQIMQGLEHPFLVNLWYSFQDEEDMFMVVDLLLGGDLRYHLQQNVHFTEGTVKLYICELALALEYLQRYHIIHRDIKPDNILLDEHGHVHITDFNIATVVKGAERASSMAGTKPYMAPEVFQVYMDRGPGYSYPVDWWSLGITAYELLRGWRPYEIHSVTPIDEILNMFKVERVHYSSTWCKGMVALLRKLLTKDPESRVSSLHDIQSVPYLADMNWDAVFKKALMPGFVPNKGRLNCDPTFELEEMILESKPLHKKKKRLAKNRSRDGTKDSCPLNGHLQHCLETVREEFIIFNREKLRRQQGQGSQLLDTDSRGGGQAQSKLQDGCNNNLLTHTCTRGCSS

Sample 1
Target: Calcium/calmodulin-dependent protein kinase type II subunit gamma (CAMK2G, Homo sapiens, UniProt Q13555)
Chain of UniProt Q13555 (whole entry, looked up): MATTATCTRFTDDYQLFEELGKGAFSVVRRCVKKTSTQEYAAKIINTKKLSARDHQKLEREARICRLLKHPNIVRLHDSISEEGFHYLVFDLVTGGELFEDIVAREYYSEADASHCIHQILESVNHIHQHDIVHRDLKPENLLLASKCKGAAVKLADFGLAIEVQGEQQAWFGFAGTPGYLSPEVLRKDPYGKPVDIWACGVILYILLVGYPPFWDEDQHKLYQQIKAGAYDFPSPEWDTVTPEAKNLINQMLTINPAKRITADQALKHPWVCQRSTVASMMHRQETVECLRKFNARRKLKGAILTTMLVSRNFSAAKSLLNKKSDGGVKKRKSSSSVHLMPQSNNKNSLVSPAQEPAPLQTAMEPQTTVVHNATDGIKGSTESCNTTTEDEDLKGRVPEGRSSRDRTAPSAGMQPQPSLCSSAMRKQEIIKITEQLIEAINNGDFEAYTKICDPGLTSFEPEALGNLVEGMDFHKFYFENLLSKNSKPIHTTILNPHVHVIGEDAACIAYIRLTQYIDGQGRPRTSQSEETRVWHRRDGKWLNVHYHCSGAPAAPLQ
Observed: enzyme activity
Mode: inhibitor
Concentration: 0.5 µM
Relative to: control
| SMILES | remaining activity |
| --- | --- |
| Nc1nc(Nc2ccc(S(N)(=O)=O)cc2)nn1C(=S)Nc1c(F)cccc1F | 15.6% |
| NC(=O)c1ccc(-c2nc(-c3ccc4c(c3)OCCO4)c(-c3ccccn3)[nH]2)cc1 | 97.4% |
| N#CC(c1ccnc(NCCc2cccnc2)n1)c1nc2ccccc2s1 (stereo not drawn) | 111% |
| C[C@@H](N)[C@H]1CC[C@H](C(=O)Nc2ccncc2)CC1 | 101% |
| O=C(O)/C=C/c1cc(Br)c(Br)c(Br)c1Br | 104% |
| CC(C)(C)c1nc2c3cc[nH]c(=O)c3c3cc(F)ccc3c2[nH]1 | 72.8% |
| FC(F)(F)c1ccc(/C=C/c2nc(COc3ccc(CCCCn4ccnn4)cc3)co2)cc1 | 99% |
| c1cc(-c2cnn3cc(-c4ccc(OCCN5CCCCC5)cc4)cnc23)ccn1 | 74.8% |
| NC(=O)c1cccc(-c2cc(Nc3ccc(OC(F)(F)F)cc3)ncn2)c1 | 102% |
| O=C1NC(=O)/C(=C/c2ccc3c(c2)OC(F)(F)O3)S1 | 102% |
| CNc1cc2c(Nc3cccc(Br)c3)ncnc2cn1 | 105% |
| COc1cc2c(Nc3ccc(Br)cc3F)ncnc2cc1OCC1CCN(C)CC1 | 112% |
| O=C1c2ccccc2-c2nc3nnnn3nc21 | 91.1% |
| CC(C)n1cnc2c(Nc3cccc(Cl)c3)nc(NCCO)nc21 | 106% |
| O=C(c1ccccc1)c1ccc(N2CCOCC2)cc1O | 94% |
| N#C/C(=C(/N)SC1C=CC=CC1)c1cccc(C(O)c2ccncc2)c1 (stereo not drawn) | 111% |
| Clc1ccc(Nc2nnc(Cc3ccncc3)c3ccccc23)cc1 | 115% |
| CC(C)N(CCC(=O)c1ccc2ccccc2c1)Cc1ccccc1 | 97.7% |
| COc1cc2c(N3CCN(C(=O)Nc4ccc(OC(C)C)cc4)CC3)ncnc2cc1OCCCN1CCCCC1 | 101% |
| O=c1c(-c2ccc(F)cc2)c(-c2ccncc2)[nH]n1-c1ccc(Cl)cc1 | 109% |
| CCN(CC)CCCCN1c2ccccc2Oc2ccc(Cl)cc21 | 104% |
| CCCCc1c(-c2ccc(O)cc2)[nH]c2nccnc12 | 101% |

Sample 2
SMILES: COc1cccc(CNC(=O)c2nc3scc(COCc4ccc(C(=O)O)cc4)c3c(=O)[nH]2)c1
Concentration: 1 µM
| target | observed | technique | remaining binding [%] |
| --- | --- | --- | --- |
| Cyclin-dependent kinase-like 2 (CDKL2, Homo sapiens, UniProt Q92772) | cell-free assay | competition with immobilised ligand | 66.8 |
| Cyclin-dependent kinase-like 3 (CDKL3, Homo sapiens, UniProt Q8IVW4) | cell-free assay | competition with immobilised ligand | 100 |
| Tyrosine-protein kinase ABL1, non-phosphorylated (ABL1, Homo sapiens, UniProt P00519, F317I) | binding | competition with immobilised ligand | 96.4 |
| TGF-beta receptor type-1 (TGFBR1, Homo sapiens, UniProt P36897) | cell-free assay | competition with immobilised ligand | 83.2 |
| Tyrosine-protein kinase ABL1, phosphorylated (ABL1, Homo sapiens, UniProt P00519, H396P) | cell-free assay | competition with immobilised ligand | 83.6 |
| Mast/stem cell growth factor receptor Kit, autoinhibited (KIT, Homo sapiens, UniProt P10721) | cell-free assay | competition with immobilised ligand | 81.3 |
| Calcium/calmodulin-dependent protein kinase type 1D (CAMK1D, Homo sapiens, UniProt Q8IU85) | cell-free assay | competition with immobilised ligand | 100 |
| Serine/threonine-protein kinase 32B (STK32B, Homo sapiens, UniProt Q9NY57) | cell-free assay | competition with immobilised ligand | 93.4 |
| Insulin receptor (INSR, Homo sapiens, UniProt P06213) | cell-free assay | competition with immobilised ligand | 76.2 |
| Serine/threonine-protein kinase MRCK gamma (CDC42BPG, Homo sapiens, UniProt Q6DT37) | – | competition binding | 99.4 |
| Receptor-type tyrosine-protein kinase FLT3 (FLT3, Homo sapiens, UniProt P36888, F691L/ITD) | cell-free assay | competition with immobilised ligand | 63 |
| Serine/threonine-protein kinase 17A (STK17A, Homo sapiens, UniProt Q9UEE5) | cell-free assay | competition with immobilised ligand | 73.1 |
| Protein kinase C epsilon type (PRKCE, Homo sapiens, UniProt Q02156) | cell-free assay | competition with immobilised ligand | 62 |
| NT-3 growth factor receptor (NTRK3, Homo sapiens, UniProt Q16288) | cell-free assay | competition with immobilised ligand | 76.3 |
| Serine/threonine-protein kinase BRSK2 (BRSK2, Homo sapiens, UniProt Q8IWQ3) | cell-free assay | competition with immobilised ligand | 77.3 |
| STE20-like serine/threonine-protein kinase (SLK, Homo sapiens, UniProt Q9H2G2) | cell-free assay | competition with immobilised ligand | 100 |
| Rhodopsin kinase GRK1 (GRK1, Homo sapiens, UniProt Q15835) | cell-free assay | competition with immobilised ligand | 57.5 |
| Phosphatidylinositol 3-kinase C2 domain-containing subunit gamma (PIK3C2G, Homo sapiens, UniProt O75747) | cell-free assay | competition with immobilised ligand | 100 |
| Tyrosine-protein kinase FRK (FRK, Homo sapiens, UniProt P42685) | cell-free assay | competition with immobilised ligand | 83.7 |

Sample 3
Cell line: HaCaT
Concentration: 100 µM
Time: 18 h
| SMILES | viability |
| --- | --- |
| CCn1cc(C(=O)O)c(=O)c2cc(F)c(N3CCNCC3)cc21 | 114% |
| CC(CN(C)C)CN1c2ccccc2Sc2ccccc21 (stereo not drawn) | 20.2% |
| O=C(/C=C/C=C/c1ccc2c(c1)OCO2)N1CCCCC1 | 76.4% |
| COc1cc(N)c(Cl)cc1C(=O)N[C@@H]1CCN(CCCOc2ccc(F)cc2)C[C@@H]1OC (racemic) | 43.6% |
| CC(=O)c1ccc(S(=O)(=O)NC(=O)NC2CCCCC2)cc1 | 107% |
| N=C(N)/N=C(\N)N1CCOCC1 | 114% |
| CC(=O)Nc1ncc([N+](=O)[O-])s1 | 98.6% |

Sample 4
Cell line: Huh-7
Concentration: 10 µM
Time: 24 h
| SMILES | viability |
| --- | --- |
| CCc1cn([C@H]2C[C@H](O)[C@@H](CO)O2)c(=O)[nH]c1=O | 78.6% |
| CO[C@@]1(NC(=O)Cc2cccs2)C(=O)N2C(C(=O)O)=C(COC(N)=O)CS[C@@H]21 | 96% |
| CN1CCC(=C2c3ccccc3CC(=O)c3sccc32)CC1 | 100% |
| CC1(C)NC(=O)N(c2ccc([N+](=O)[O-])c(C(F)(F)F)c2)C1=O | 96.2% |
| Cc1ccc(C(=O)c2ccc(CC(=O)O)n2C)cc1 | 103% |
| NCCS(=O)(=O)O | 105% |
| C[C@](N)(Cc1ccc(O)cc1)C(=O)O | 101% |
| COC(=O)N/N=C/c1c[n+]([O-])c2ccccc2[n+]1[O-] | 87.9% |
| OC(CCN1CCCCC1)(c1ccccc1)C1CCCCC1 (stereo not drawn) | 99.6% |
| COc1ccc2cc(CCC(C)=O)ccc2c1 | 101% |
| C=C[C@@]1(C)CC(=O)[C@]2(O)[C@@]3(C)[C@@H](O)CCC(C)(C)[C@@H]3[C@H](O)[C@H](OC(C)=O)[C@@]2(C)O1 | 90.5% |
| C[C@H]1[C@H](NC(=O)/C(=N\OC(C)(C)C(=O)O)c2csc(N)n2)C(=O)N1S(=O)(=O)O | 96.9% |

For quick reference, copied from above (sample 4):
| SMILES | viability |
| --- | --- |
| COC(=O)N/N=C/c1c[n+]([O-])c2ccccc2[n+]1[O-] | 87.9% |
| OC(CCN1CCCCC1)(c1ccccc1)C1CCCCC1 (stereo not drawn) | 99.6% |
| COc1ccc2cc(CCC(C)=O)ccc2c1 | 101% |
